{"data": "Experimental data collected from several papers", "note": "Numbered parts are unrelated; each lists some results of a single study. Values joined by “and” are separate records of one study, mostly repeats; a detail may differ.", "UniProt P11712, sequence (whole entry, looked up)": "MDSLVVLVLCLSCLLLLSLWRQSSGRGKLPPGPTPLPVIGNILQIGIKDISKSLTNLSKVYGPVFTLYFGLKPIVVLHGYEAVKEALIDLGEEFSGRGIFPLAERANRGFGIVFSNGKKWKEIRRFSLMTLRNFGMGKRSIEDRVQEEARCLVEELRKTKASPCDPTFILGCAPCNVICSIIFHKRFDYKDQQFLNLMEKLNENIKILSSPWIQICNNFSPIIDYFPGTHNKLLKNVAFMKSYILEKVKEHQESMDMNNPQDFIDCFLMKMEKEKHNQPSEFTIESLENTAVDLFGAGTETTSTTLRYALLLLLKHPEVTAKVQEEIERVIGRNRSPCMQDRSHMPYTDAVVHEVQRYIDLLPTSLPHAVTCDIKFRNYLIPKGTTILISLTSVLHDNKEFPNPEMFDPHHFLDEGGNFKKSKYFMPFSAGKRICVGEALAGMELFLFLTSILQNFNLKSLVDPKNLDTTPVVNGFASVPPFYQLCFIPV", "UniProt P33261, sequence (whole entry, looked up)": "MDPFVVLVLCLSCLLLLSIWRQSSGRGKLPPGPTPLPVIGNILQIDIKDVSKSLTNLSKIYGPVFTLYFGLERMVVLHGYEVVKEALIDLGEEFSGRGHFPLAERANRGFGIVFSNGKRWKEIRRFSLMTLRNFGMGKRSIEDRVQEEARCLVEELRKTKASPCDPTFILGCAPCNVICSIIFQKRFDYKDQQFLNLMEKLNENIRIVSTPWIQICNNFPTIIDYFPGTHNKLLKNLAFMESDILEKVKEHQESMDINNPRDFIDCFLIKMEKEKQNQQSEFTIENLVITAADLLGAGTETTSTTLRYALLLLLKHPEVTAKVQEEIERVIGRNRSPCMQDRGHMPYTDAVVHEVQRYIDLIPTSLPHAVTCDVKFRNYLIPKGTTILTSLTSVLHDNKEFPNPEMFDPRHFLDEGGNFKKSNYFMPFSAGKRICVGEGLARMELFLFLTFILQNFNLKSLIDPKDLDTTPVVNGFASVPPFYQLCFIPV"}
{"data": "Study 1", "Structure (SMILES)": "NC/C(=C\\F)COc1cccc(Cn2c(=S)[nH]c(=O)c3[nH]cnc32)c1", "mode": "inhibitor", "CYP2D6": "Cytochrome P450 2D6 (CYP2D6, Homo sapiens, UniProt P10635)", "CYP1A2": "Cytochrome P450 1A2 (CYP1A2, Homo sapiens, UniProt P05177)", "CYP3A4": "Cytochrome P450 3A4 (CYP3A4, Homo sapiens, UniProt P08684)", "UniProt P05177, sequence (whole entry, looked up)": "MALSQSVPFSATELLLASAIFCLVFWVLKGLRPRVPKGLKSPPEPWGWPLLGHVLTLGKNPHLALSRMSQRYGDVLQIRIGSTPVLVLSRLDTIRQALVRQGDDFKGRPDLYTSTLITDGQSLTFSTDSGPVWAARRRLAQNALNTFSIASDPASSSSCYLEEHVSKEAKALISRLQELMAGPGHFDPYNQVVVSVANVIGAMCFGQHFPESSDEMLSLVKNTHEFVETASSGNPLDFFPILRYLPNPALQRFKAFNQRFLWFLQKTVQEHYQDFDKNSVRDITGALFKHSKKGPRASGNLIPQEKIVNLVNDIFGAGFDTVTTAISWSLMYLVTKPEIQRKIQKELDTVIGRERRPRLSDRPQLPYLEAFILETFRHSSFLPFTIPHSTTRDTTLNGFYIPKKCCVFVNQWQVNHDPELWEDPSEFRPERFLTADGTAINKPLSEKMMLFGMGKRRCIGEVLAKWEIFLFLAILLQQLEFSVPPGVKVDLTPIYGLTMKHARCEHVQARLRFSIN", "UniProt P10635, sequence (whole entry, looked up)": "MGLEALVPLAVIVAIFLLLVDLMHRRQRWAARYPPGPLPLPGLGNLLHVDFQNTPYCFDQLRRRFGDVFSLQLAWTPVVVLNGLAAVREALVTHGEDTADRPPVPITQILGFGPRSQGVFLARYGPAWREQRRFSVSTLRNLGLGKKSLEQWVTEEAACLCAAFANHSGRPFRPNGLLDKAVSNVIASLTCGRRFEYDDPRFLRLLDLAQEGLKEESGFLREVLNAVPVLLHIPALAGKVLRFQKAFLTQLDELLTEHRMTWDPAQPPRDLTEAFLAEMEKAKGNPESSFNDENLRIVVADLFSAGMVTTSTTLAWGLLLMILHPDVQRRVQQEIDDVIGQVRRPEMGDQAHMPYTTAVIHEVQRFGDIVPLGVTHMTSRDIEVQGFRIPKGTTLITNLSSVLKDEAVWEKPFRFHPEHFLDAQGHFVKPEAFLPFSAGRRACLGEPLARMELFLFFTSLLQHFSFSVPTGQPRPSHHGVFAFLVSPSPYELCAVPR", "UniProt P08684, sequence (whole entry, looked up)": "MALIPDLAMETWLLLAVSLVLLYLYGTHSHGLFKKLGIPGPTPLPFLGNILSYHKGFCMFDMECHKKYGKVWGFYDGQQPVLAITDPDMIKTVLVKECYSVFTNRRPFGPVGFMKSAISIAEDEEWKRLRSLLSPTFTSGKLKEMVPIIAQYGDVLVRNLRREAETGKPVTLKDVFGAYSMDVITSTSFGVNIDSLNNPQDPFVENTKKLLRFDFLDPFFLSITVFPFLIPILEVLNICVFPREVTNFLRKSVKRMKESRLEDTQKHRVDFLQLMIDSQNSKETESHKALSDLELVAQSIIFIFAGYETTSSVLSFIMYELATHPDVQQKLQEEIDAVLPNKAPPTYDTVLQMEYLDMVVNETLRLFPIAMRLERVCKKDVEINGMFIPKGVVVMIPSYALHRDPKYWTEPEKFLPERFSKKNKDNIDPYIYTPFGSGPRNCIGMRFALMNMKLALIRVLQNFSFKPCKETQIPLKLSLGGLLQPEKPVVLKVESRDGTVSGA"}
{"target": "CYP2D6", "conditions": "30 µM", "remaining activity": "70.1% and 77.1%"}
{"target": "CYP1A2", "conditions": "3.33 µM", "remaining activity": "99.7% and 106%"}
{"target": "CYP3A4", "assay": "enzyme activity", "conditions": "3.33 µM, CYP3A4-MID substrate", "remaining activity": "70.8%"}
{"target": "Cytochrome P450 2C9 (CYP2C9, Homo sapiens, UniProt P11712)", "conditions": "3.33 µM", "remaining activity": "68.2% and 89.2%"}
{"target": "CYP3A4", "assay": "enzyme activity", "conditions": "0.37 µM, CYP3A4-MID substrate", "remaining activity": "99.7%"}
{"target": "CYP2D6", "conditions": "3.33 µM", "remaining activity": "96.7% and 89.5%"}
{"target": "CYP1A2", "conditions": "0.37 µM", "remaining activity": "110% and 99.4%"}
{"target": "CYP2C19 (Homo sapiens, UniProt P33261)", "conditions": "0.37 µM", "remaining activity": "98.6% and 122%"}
{"data": "Study 2", "SMILES": "CC(C)C[C@@H]1NC(=O)[C@@H](N(C)C(=O)[C@@H](NC(=O)[C@@H]2C[C@@H](F)CN2C(=O)C2(C(F)(F)F)CC(F)(F)C2)C2CC2)CCCCCCCN(C)C(=O)[C@H](Cc2cc(Cl)cnc2OC2CC2)N(C)C1=O", "route": "oral"}
{"system": "mouse, sample A SCLC PDX", "conditions": "100 mg/kg three times daily, day 18", "tumour volume": "186 mm3 and 301 mm3 and 281 mm3 and 185 mm3 and 264 mm3"}
{"system": "mouse, sample A SCLC PDX", "conditions": "100 mg/kg three times daily, day 7", "tumour volume": "130 mm3 and 148 mm3 and 193 mm3 and 144 mm3"}
{"system": "NSG mice, sample B SCLC PDX", "conditions": "100 mg/kg twice daily, day 5", "tumour volume": "174 mm3 and 292 mm3 and 188 mm3 and 202 mm3 and 211 mm3"}
{"system": "NSG mice, sample B SCLC PDX", "conditions": "100 mg/kg twice daily, day 26", "tumour volume": "214 mm3 and 236 mm3 and 226 mm3 and 221 mm3 and 258 mm3"}
{"system": "mouse, sample A SCLC PDX", "conditions": "100 mg/kg three times daily, day 0", "tumour volume": "144 mm3 and 190 mm3 and 174 mm3 and 240 mm3"}
{"system": "NSG mice, sample B SCLC PDX", "conditions": "100 mg/kg twice daily, day 12", "tumour volume": "295 mm3 and 194 mm3 and 204 mm3 and 214 mm3 and 288 mm3"}
{"data": "Study 3", "SMILES": "Cn1cc(-c2cccc(CN3CCC4(CC3)COc3c4ccc4c3CN([C@H]3CCC(=O)NC3=O)C4=O)c2)cn1", "target": "CRBN/Zinc finger protein Helios (Homo sapiens, UniProt Q96SW2+Q9UKS7)", "mode": "degrader", "method": "HiBiT", "cell line": "HEK293", "UniProt Q9UKS7, sequence (whole entry, looked up)": "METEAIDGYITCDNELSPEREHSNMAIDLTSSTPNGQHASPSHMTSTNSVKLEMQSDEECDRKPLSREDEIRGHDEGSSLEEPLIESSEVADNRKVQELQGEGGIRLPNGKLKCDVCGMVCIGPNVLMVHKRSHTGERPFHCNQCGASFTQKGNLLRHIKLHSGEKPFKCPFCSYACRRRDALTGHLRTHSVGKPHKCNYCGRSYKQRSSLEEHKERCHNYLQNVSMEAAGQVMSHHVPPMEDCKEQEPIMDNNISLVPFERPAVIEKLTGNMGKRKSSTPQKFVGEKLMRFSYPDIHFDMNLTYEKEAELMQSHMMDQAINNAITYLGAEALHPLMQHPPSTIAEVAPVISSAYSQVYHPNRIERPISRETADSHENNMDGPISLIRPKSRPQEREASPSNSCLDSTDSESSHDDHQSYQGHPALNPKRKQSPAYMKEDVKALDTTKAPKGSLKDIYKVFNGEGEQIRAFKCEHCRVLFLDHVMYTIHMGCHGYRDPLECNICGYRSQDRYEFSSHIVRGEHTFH", "UniProt Q96SW2, sequence (whole entry, looked up)": "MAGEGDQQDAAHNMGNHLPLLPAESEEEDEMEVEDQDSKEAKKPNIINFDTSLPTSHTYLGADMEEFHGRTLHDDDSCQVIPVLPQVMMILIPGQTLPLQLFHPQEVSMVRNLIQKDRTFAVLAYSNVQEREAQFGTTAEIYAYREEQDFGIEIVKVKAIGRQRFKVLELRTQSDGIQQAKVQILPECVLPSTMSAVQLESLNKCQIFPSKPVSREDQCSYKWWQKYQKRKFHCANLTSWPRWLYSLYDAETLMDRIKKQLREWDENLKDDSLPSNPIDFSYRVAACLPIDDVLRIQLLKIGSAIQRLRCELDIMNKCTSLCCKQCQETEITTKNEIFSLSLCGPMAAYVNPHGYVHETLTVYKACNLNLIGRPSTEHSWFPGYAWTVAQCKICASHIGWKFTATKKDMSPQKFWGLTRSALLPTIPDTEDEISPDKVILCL"}
{"conditions": "1.372 nM, 0.5 h", "protein remaining": "84.4% and 91.5%"}
{"conditions": "0.4572 nM, 6 h", "protein remaining": "58.5% and 53.2%"}
{"conditions": "1000 nM, 3 h", "protein remaining": "14.7% and 18.1%"}
{"conditions": "0.4572 nM, 0.5 h", "protein remaining": "92.5% and 86.3%"}
{"conditions": "37.04 nM, 1 h", "protein remaining": "49.9% and 47.8%"}
{"conditions": "0.4572 nM, 3 h", "protein remaining": "64.3% and 65.5%"}
{"conditions": "0.05081 nM, 3 h", "protein remaining": "86.2% and 88.6%"}
{"conditions": "12.35 nM, 0.5 h", "protein remaining": "78.6% and 80.8%"}
{"data": "Mixed results"}
{"SMILES": "C=CCN1C(=O)C(O)(C(=O)O)Oc2cc(F)ccc21 (centres unmarked)", "organism": "Arabidopsis thaliana", "assay": "root length", "system": "Col-0", "conditions": "12.5 µg/mL, 7 days, seed germination, dark", "measurement": "inhibition", "result": "14.5%"}
{"note": "For quick reference, copied from above (study 3):"}
{"conditions": "1000 nM, 3 h", "protein remaining": "14.7% and 18.1%"}
{"conditions": "0.05081 nM, 3 h", "protein remaining": "86.2% and 88.6%"}
{"conditions": "0.4572 nM, 3 h", "protein remaining": "64.3% and 65.5%"}
{"conditions": "0.4572 nM, 6 h", "protein remaining": "58.5% and 53.2%"}
